Results gathered from unrelated publications.
Each line is one published result; not all experiments were run side by side. Values joined by “and” are separate records of one study, mostly repeats; a detail may differ.
Spike glycoprotein: Spike glycoprotein (Severe acute respiratory syndrome coronavirus 2, UniProt P0DTC2)

Substance | tested on | assay | test system | setting | how to read | endpoint | value
Nc1ncnc2c([C@@H]3N[C@H](CO)[C@@H](O)[C@H]3O)c[nH]c12 | Marburg virus | viral replication, antibody staining | HeLa, Musoke | 100 µM, 1 h | – | infected cells | 0.4%
CNC(=O)[C@@H](NC(=O)[C@H](CC(C)C)[C@H](O)C(=O)NO)C(C)(C)C | Daboia russelii venom proteases (SVMP) | protease activity, inhibitor | MP population | 1 µM, with: azocasein substrate | baseline: venom alone | remaining activity | 65.4% and 67.7% and 64.7%
CCCCN(CCCNC(=O)c1cc(Nc2cccc(SC)c2)nc2ccccc12)Cc1ccccc1 | SARS-CoV-2 | cytopathic effect | USA_WA1/2020 | round 2, 5-point | – | maximum response | 33.1%
Cn1cnc(Cn2c(=O)[nH]/c(=N\c3cc4cn(C)nc4cc3Cl)n(Cc3cc(F)c(F)cc3F)c2=O)n1 | – | – | human, moderate renal impairment, plasma | oral, 375 mg single dose | – | terminal elimination rate constant | 3.53e-06 s⁻¹
KAYNVTQAF | human PBMC CD8+ T cells | T cell response | peptide | – | – | positive donors | 1 donors and 2 donors
CCCCSCCCNC(=O)C1CCN(Cc2nc(-c3ccc(CC)cc3)oc2C)CC1 | SARS-CoV-2 | cytopathic effect, cell-based CPE | USA_WA1/2020 | round 2, 5-point dilution | – | maximal response | 89.8%
CCc1c(C(=O)C(N)=O)c2c(OCC(=O)O)cccc2n1Cc1ccccc1 | – | – | PB population, mouse | intravenous, 120 µg/mouse, 24 h, given 30 min after venom, with: Daboia russelii venom 2.5 x LD50 i.p. | – | survival | 100%
CC[C@H](C)[C@H](NC(=O)[C@H](CC(C)C)NC(=O)[C@H](Cc1c[nH]c2ccccc12)NC(=O)[C@H](CCC(N)=O)NC(=O)[C@@H](NC(=O)[C@H](Cc1ccccc1)NC(=O)[C@H](C)NC(=O)[C@H](CCCCNC(=O)COCCOCCNC(=O)COCCOCCNC(=O)CC[C@H](NC(=O)CCCCCCCCCCCCCCCCCCC(=O)O)C(=O)O)NC(=O)[C@H](CCC(N)=O)NC(=O)[C@H](C)NC(=O)[C@@H](NC(=O)[C@H](CCCCN)NC(=O)[C@H](CC(=O)O)NC(=O)[C@H](CC(C)C)NC(=O)C(C)(C)NC(=O)[C@@H](NC(=O)[C@H](CO)NC(=O)[C@H](Cc1ccc(O)cc1)NC(=O)[C@H](CC(=O)O)NC(=O)[C@H](CO)NC(=O)[C@@H](NC(=O)[C@H](Cc1ccccc1)NC(=O)[C@@H](NC(=O)CNC(=O)[C@H](CCC(=O)O)NC(=O)C(C)(C)NC(=O)[C@@H](N)Cc1ccc(O)cc1)[C@@H](C)O)[C@@H](C)O)[C@@H](C)CC)[C@@H](C)CC)C(C)C)C(=O)N[C@@H](C)C(=O)NCC(=O)NCC(=O)N1CCC[C@H]1C(=O)N[C@@H](CO)C(=O)N[C@@H](CO)C(=O)NCC(=O)N[C@@H](C)C(=O)N1CCC[C@H]1C(=O)N1CCC[C@H]1C(=O)N1CCC[C@H]1C(=O)N[C@@H](CO)C(N)=O | – | – | healthy subjects, single ascending dose | 1.0 mg, day 29 | baseline: baseline | systolic blood pressure change | 1.9 mmHg
DAVNLLTNM | – | AIM | peptide, CD8+ T cells from PBMC, human donors | – | baseline: positive over tested donors | frequency of responding donors | 100%
O=C(/C=C/c1ccc(O)c(O)c1/C=C/c1ccc(O)c(O)c1)O[C@H](Cc1ccc(O)c(O)c1)C(=O)O | Spike glycoprotein | binding | – | – | – | Kd | 27.1 µM
SFNPETNILLNVPLH | human CD4 T cells | AIM | peptide | – | – | responding donors | 8%
C[C@H]1CC[C@@]2(OC1)O[C@H]1C[C@H]3[C@@H]4CC[C@@H]5C[C@@H](O[C@@H]6O[C@H](CO)[C@H](O)[C@H](O)[C@H]6O[C@@H]6O[C@H](CO)[C@@H](O)[C@H](O)[C@H]6O)CC[C@]5(C)[C@H]4CC[C@]3(C)[C@H]1[C@@H]2C | Spike glycoprotein | binding | – | – | – | Kd | 7.21 µM
Cc1ccc(Nc2ccnc(N3CCC(C(=O)NCCCc4ccccc4)CC3)n2)cc1 | SARS-CoV-2 | cytopathic effect, cell-based CPE | USA_WA1/2020 | round 2, 5-point dilution | – | AC50 | 7.08 µM

Excerpt of the above:
Substance | tested on | assay | test system | setting | how to read | endpoint | value
O=C(/C=C/c1ccc(O)c(O)c1/C=C/c1ccc(O)c(O)c1)O[C@H](Cc1ccc(O)c(O)c1)C(=O)O | Spike glycoprotein | binding | – | – | – | Kd | 27.1 µM
SFNPETNILLNVPLH | human CD4 T cells | AIM | peptide | – | – | responding donors | 8%
